Experimental data collected from several papers.
Protocols differ between the studies behind these lines. Numbers after ± are the reported error.

Structure (SMILES) | target or system | test | test system | conditions | how to read | measurement | value
O=C(Nc1nc2cccc(-c3ccc(CN4CCS(=O)(=O)CC4)cc3)n2n1)C1CC1 | – | refers to: aspartate aminotransferase increased | human rheumatoid arthritis patients | oral, 300 mg once daily, 4 weeks, regardless of relatedness | – | treatment-emergent adverse events | 0%
COc1ccc(-c2cncc(N[C@@H](C)c3cccc(NC(=O)c4cncc(C)c4)c3)n2)cc1OC | – | refers to: rno-miR-154-5p | rat SU5416/hypoxia model, lung | dose not given | relative to: SU5416/hypoxia vehicle | fold change | 2.98
N#CCC1CCN(c2nc(Nc3ccc(N4CCC(O)CC4)cc3)c3c(=O)[nH]ncc3n2)CC1 | – | Olink multiplex, refers to: CD163 | human, serum | 20 mg, day 15 | relative to: baseline | fold change from baseline | -1.2
CN[C@@H]1COc2c(S(=O)(=O)NC(=O)Nc3c4c(cc5c3CCC5)CCC4)cnn2C1 | – | refers to: IL-18 | human participants, whole blood ex vivo | 900 mg single dose, 8 h, IL-18, circulating, adjusted for, together with: LPS/ATP | relative to: baseline | inhibition | 108%
COc1ccccc1[C@H](Cn1c(=O)n(C(C)(C)C(=O)O)c(=O)c2c(C)c(-c3ncco3)sc21)OC1CCOCC1 | – | [1-13C]acetate infusion, isotopomer analysis | overweight or obese healthy men, plasma VLDL-TG palmitate | oral, 20 mg single dose, 0 h relative to dose, fasted baseline | – | fractional hepatic DNL | 7.34 % new palmitate
O=C1N[C@H](c2cncc(C#Cc3ccccc3)c2)[C@@H](c2ccccc2Cl)O1 | – | immunoblot | dKI mice, total homogenate | dose not given | – | C1q level | no effect
CC(C)NCC(O)c1ccc(O)c(O)c1 (stereo not shown) | – | – | ventricular cardiomyocytes, C57BL/6 mouse | dose not given, 0.248 s | – | sarcomere length | 1.6 µm
NC(=O)c1cnc2[nH]ccc2c1N[C@@H]1[C@@H]2CC3C[C@H]1C[C@@](O)(C3)C2 | – | flow cytometry, refers to: CD4+ effector T cells | Japanese healthy subjects, peripheral blood | oral, 100 mg twice daily, day 4 | – | change from baseline | -0.08%
N#Cc1ccn2c(-c3ccncc3)c(-c3ccc(F)cc3)nc2c1 | – | kinase binding, competitor, MIB/MS competition, refers to: YAK1 | Candida albicans cell lysate | 100 nM | relative to: DMSO | log2 fold change | 0.41
O=C(O)CC[C@H](NC(=O)N[C@@H](CCCCNC(=O)[C@H](Cc1ccc2ccccc2c1)NC(=O)CCCCCNC(=O)CN1CCN(CC(=O)O)CCN(CC(=O)O)CCN(CC(=O)O)CC1)C(=O)O)C(=O)O [gallium-68 labelled] | – | PET/CT | mouse, 22Rv1 xenograft, tumour | intravenous, 3.7 MBq, 8 h | – | SUVmean | 0.15 ± 0.004 SUV
O=C(O)CNC(=O)Cc1ccccc1 | – | – | ventricular cardiomyocytes, C57BL/6 mouse | dose not given, 0.712 s | – | sarcomere length | 1.72 µm
COc1nnc2ccc(N3CCC(c4ccc(OCCN5CCN(C)C(=O)[C@H]5C)cc4)CC3)nn12 | – | – | human patients | 20 mg twice daily, 1.5-fold above baseline | – | time above HEXIM1 threshold | 10.2 h
C[C@H](Oc1ccc(Br)cc1-c1ccon1)C(=O)O | – | last response peak | human, tibialis anterior muscle | 100 mg, 30 Hz, single ascending dose | – | difference from placebo | 20.4%
CC1=C(Cn2cc(C(C)(C)O)nn2)C(=O)c2ccccc2C1=O | Schistosoma mansoni | – | NTS | – | relative to: L6 CC50 over IC50 | selectivity index | 6.9
Cc1n[nH]c2ccc(-c3cc(OC[C@@H](N)Cc4ccccc4)cnc3-c3ccoc3)cc12 | – | kinase binding, competitor, MIB/MS competition, refers to: YAK1 | Candida albicans cell lysate | 10 µM | relative to: DMSO | log2 fold change | -2.8
CC1=C(Cn2cc(CN)nn2)C(=O)c2ccccc2C1=O | Schistosoma mansoni | – | adult worms | 10 µM, 48 h | – | killing | 44.4%
OC(CCN1CCCCC1)(c1ccccc1)C1CC2C=CC1C2 (stereo not shown) | – | resting-state EEG | healthy elderly humans | oral, 4 mg, eyes open, LS mean | – | gamma power, EEG, Pz-O1 | 0.9 µV²
N#Cc1ccc2c(-c3ccncc3)c(-c3ccc(F)cc3)nn2c1 | – | kinase binding, competitor, MIB/MS competition, refers to: TOR1 | Candida albicans cell lysate | 10 µM | relative to: DMSO | log2 fold change | -0.443
C[C@@H](NC(=O)N1C(=O)[C@H](Cc2ccnc(N)c2)[C@H]1C(=O)O)C1CCCCC1 | – | – | human | iv infusion, 1.0 mg/kg/h, 24 h | – | aPTT Emax | 56.3 s

For quick reference, copied from above:
Structure (SMILES) | target or system | test | test system | conditions | how to read | measurement | value
COc1nnc2ccc(N3CCC(c4ccc(OCCN5CCN(C)C(=O)[C@H]5C)cc4)CC3)nn12 | – | – | human patients | 20 mg twice daily, 1.5-fold above baseline | – | time above HEXIM1 threshold | 10.2 h
C[C@H](Oc1ccc(Br)cc1-c1ccon1)C(=O)O | – | last response peak | human, tibialis anterior muscle | 100 mg, 30 Hz, single ascending dose | – | difference from placebo | 20.4%
CC1=C(Cn2cc(C(C)(C)O)nn2)C(=O)c2ccccc2C1=O | Schistosoma mansoni | – | NTS | – | relative to: L6 CC50 over IC50 | selectivity index | 6.9
